Measurements of several laboratories.
Lines come from different studies, so protocols differ. “And” joins repeats or separate records; there may be more than shown.

| SMILES | test | test system | setting | how to read | quantity | result |
| --- | --- | --- | --- | --- | --- | --- |
| NC(=O)[C@H]1CCN(c2ncnc(N)c2F)C[C@@H]1N1CCC[C@@H](Nc2cc(Cl)cc(C(F)(F)F)c2)C1=O |  | B-cell malignancy patients | oral, 410 mg twice daily, dose |  | grade ≥3 anaemia | 0% |
| Cc1c(COC(=O)[C@@H]2[C@H](/C=C(\Cl)C(F)(F)F)C2(C)C)cccc1-c1ccccc1 (racemic) | item: CYP2C19 | human, age 5 years, recombinant human CYP2C19 | 0.1 µM |  | enzyme contribution to clearance | 54.4% |
| COc1ccnc(C(=O)N[C@H]2COC(=O)[C@H](Cc3ccccc3)[C@@H](OC(=O)C(C)C)[C@H](C)OC2=O)c1OCOC(=O)C(C)C | carcinogenicity | rat | 2 year, highest dose tested |  | NOAEL | 1010 mg/kg/day |
| CN1CCN(S(=O)(=O)c2cc([N+](=O)[O-])ccc2N(CCOS(C)(=O)=O)CCOS(C)(=O)=O)CC1 |  | NSG mice female, plasma | intraperitoneal, 5 mg/kg, 0.5 h |  | concentration | 340 nM |
| CCC[C@@](N)(CO)CCc1ccc(OCCCCCC(C)C)cc1 |  | hound dogs, male | oral, 20 mg/kg, capsule, fed state, median |  | Tmax | 6 h |
| CC(=O)c1c(C)c2cnc(Nc3ccc(C4CCN(CCS(C)(=O)=O)CC4)cn3)nc2n(C2CCCC2)c1=O |  | human patients, plasma | oral, 75 mg twice daily, day 21 multiple doses, added: fulvestrant |  | AUC(0-t) | 1200 ng·h/mL |
| CO[C@H]1C[C@@H]2CC[C@@H](C)[C@@](O)(O2)C(=O)C(=O)N2CCCC[C@H]2C(=O)O[C@H]([C@H](C)C[C@@H]2CC[C@@H](OC(=O)NCCOCCOCCOCCOCCOCCOCCOCCOCCC(=O)N3CCc4cc(Cn5nc(-c6ccc7oc(N)nc7c6)c6c(N)ncnc65)ccc4C3)[C@H](OC)C2)C[C@@H](O)[C@H](C)/C=C(\C)[C@@H](O)[C@@H](OC)C(=O)[C@H](C)C[C@H](C)/C=C/C=C/C=C/1C | dose-escalation trial | patients with advanced solid tumours | intravenous, all doses weekly |  | serious AE incidence | 33% |
| COc1cc2c(Oc3ccc4[nH]c(C)cc4c3F)ccnc2cc1OCC1(N)CC1 |  | paediatric recurrent refractory sarcoma | 10 mg |  | Hypertension incidence | 25% |
| Cc1noc(C)c1Cn1cc(N2C(=O)CN(Cc3cccc(O)c3)C2=O)cn1 |  | CD-1 mouse, male, bone marrow | 500 mg/kg/day, 24 h |  | PCE proportion | 52.6% |
| N.N.[Cl][Pt][Cl] |  | mouse, serum | dose not given |  | ALT | 34 IU/L and 59 IU/L and 57 IU/L |
| Cn1cc(-c2nc(N[C@@H]3CCCC[C@@H]3N)c(F)c3c2C(=O)NC3)cn1 | item: subdural haematoma | patients with relapsed or refractory AML | oral, 160 mg once daily |  | hemorrhagic adverse events | 11% |
| CC(C)C[C@H](NC(=O)[C@H](CCCCN)NC(=O)OCC1c2ccccc2-c2ccccc21)C(=O)N[C@H](C(=O)N[C@@H](Cc1ccccc1)C(=O)N[C@@H](Cc1ccccc1)C(=O)N[C@@H](CCCCN)C(=O)NCC(=O)N[C@@H](Cc1ccccc1)C(=O)N[C@@H](C)C(=O)N[C@@H](Cc1c[nH]c2ccccc12)C(=O)N[C@@H](CC(N)=O)C(=O)N[C@H](C(=O)N[C@H]1CSSC[C@@H](C(=O)N[C@@H](Cc2c[nH]cn2)C(=O)N[C@@H](CCCNC(=N)N)C(=O)N[C@@H](CCCNC(=N)N)C(=O)N[C@@H](C)C(=O)N[C@@H](CC(N)=O)C(N)=O)NC(=O)[C@H](C(C)C)NC(=O)[C@H](CCCNC(=N)N)NC(=O)[C@H](C(C)C)NC(=O)CNC(=O)[C@H](CC(N)=O)NC(=O)[C@H](CCCNC(=N)N)NC(=O)[C@H](Cc2ccc(O)cc2)NC(=O)[C@H](C(C)C)NC1=O)C(C)C)C(C)C |  | ICR mouse | ip, 10 mg/kg | direction not given | spasm score | 0 |
